Published values collected from several papers.
Every numbered part comes from another study and shows a few of its results, in no order.

Study 1 — technique: protein-binding microarray; form: double-stranded DNA, one strand shown; sample: in vitro; tested at: 940 nM top; setting: 60-bp whole probe; added: salmon DNA 0.4 mg/ml; reference: random background probes; reading: higher = stronger binding
Target: Interferon regulatory factor 5, full length, phosphomimetic (IRF5, Homo sapiens, UniProt Q13568-2, residues 1-514, S451D/S453D/S456D/S462D)
| Oligonucleotide | fitted relative affinity |
| --- | --- |
| GCCTAGCACGACGATCCCAGACTGGAGACGTGCTAGGTCTTGATTCGCTTGACGCTGCTG | -0.674 z-score |
| GCCTAGCACGACGAAATCAGTCTCGAGACGTGCTAGGTCTTGATTCGCTTGACGCTGCTG | 1.28 z-score |
| GCCTAGCACTTGGGTATCGGTTTCGGTTAGTGCTAGGTCTTGATTCGCTTGACGCTGCTG | 11.8 z-score |
| GCCTAGCACGACGATATCAGTTTCGTGACGTGCTAGGTCTTGATTCGCTTGACGCTGCTG | 1.62 z-score |

Study 2 — technique: RNA Bind-n-Seq; form: RNA; sample: in vitro; tested at: 365 nM; reference: no-protein control; reading: higher = stronger binding
Target: RNA binding protein fox-1 homolog 2, RRM domain, GST-SBP tag (RBFOX2, Homo sapiens, UniProt O43251-10, residues 100-194)
Setting: natural RNA segment, single round, ends assumed
| Oligonucleotide | RBNS enrichment (R) |
| --- | --- |
| GGGAGUUCUACAGUCCGACGAUCAGCCUUAGUUCUCCUGGAAGCUGCCAACUGCUUACGGGAGUGGGUAGAUUGGGCGUCUGAGACCCAGAACAUCCUAAAUUUGCAAUGGGUAACAGCUGAAACAAACGGAAUGGAAUUCUCGGGUGCCAA | 0.405 |
| GGGAGUUCUACAGUCCGACGAUCUCCAUAGCCUUGUAAGAGAUACUGAUUGUAUCUGAAAUUAUUUUUUAAAAAAAUAAAUUAUCCUGCUUUAGUUAGUGUGUUAAAAGUAGACGAUGUUCUAAUAUAACACUUGGAAUUCUCGGGUGCCAA | 3.28 |
| GGGAGUUCUACAGUCCGACGAUCAAAUGGUUAAUAUUGGUCCCAACAGGGCUGACUCUUCUAUCAUAUAAUCAAAACUUUUUACAUGAGCAAAAUUCAGUAAGAAAUGGGGGAAGACAAAGGAAACGUCUUUGUGGAAUUCUCGGGUGCCAA | 0.495 |
| GGGAGUUCUACAGUCCGACGAUCUAGAUCCUGUAGUAAACAUGUCCCAUCUAUGACUGCCUUGAUUAUAGAGGCAAGGGGUUACUGUGUGAAUCCCGGCUCCCUUCCACAUGCUGUACACCCUAUCCAUCUGUUGGAAUUCUCGGGUGCCAA | 0.84 |

Study 3 — technique: protein binding microarray; form: double-stranded DNA, one strand shown; sample: in vitro; tested at: not given; reference: not given; reading: higher = stronger binding
Target: Histone acetyltransferase KAT6A, both winged helices, GST fusion (KAT6A, Homo sapiens, UniProt Q92794, residues 1-181)
Setting: 8-mer, flanks averaged, mean of 2 arrays, mostly near background
Residues (chain): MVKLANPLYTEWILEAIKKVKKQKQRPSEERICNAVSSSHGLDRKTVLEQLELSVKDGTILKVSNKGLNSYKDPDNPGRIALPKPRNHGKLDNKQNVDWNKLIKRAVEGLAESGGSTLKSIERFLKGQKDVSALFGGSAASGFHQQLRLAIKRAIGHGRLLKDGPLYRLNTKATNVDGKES
| Oligonucleotide | E-score |
| --- | --- |
| AAGTCAAT | -0.0942 |
| ATTTACGC | 0.134 |
| CAGTAGAC | -0.0515 |

Other studies, line by line
| Substance | target | assay | test system | conditions | scale | endpoint | result |
| --- | --- | --- | --- | --- | --- | --- | --- |
| PhoQ, residues 284 288 289 292 302 303 TAVSDG | PhoP, residues 12 14 15 18 19 DLLYY (Escherichia coli, UniProt P23836) | Sort-seq, item: YFP reporter | E. coli | PhoQ-PhoP variant library, added: 10 µM Mg2+ | reference: high Mg2+ state, higher = stronger signaling | fold induction | 0.835 |

Some of these lines once more (study 2):
| Oligonucleotide | RBNS enrichment (R) |
| --- | --- |
| GGGAGUUCUACAGUCCGACGAUCUAGAUCCUGUAGUAAACAUGUCCCAUCUAUGACUGCCUUGAUUAUAGAGGCAAGGGGUUACUGUGUGAAUCCCGGCUCCCUUCCACAUGCUGUACACCCUAUCCAUCUGUUGGAAUUCUCGGGUGCCAA | 0.84 |
